Measurements pooled from the literature.
Protocols differ between the studies behind these lines.
Organism: Cryptosporidium parvum

| Compound | test | test system | setting | EC50 [nM] |
| --- | --- | --- | --- | --- |
| COc1ccc(NC(=O)N2CCCCN3C[C@H](c4ccc(C#Cc5ccccc5)cc4)[C@@H]3C2)cc1 | parasite growth | Iowa (Sterling) | – | 31 |
| O=C(Cc1ccc(Br)c(F)c1)N1CCN(c2ccc3nncn3n2)CC1 | high-content imaging | HCT-8 | – | < 1000 |
| COc1ccc(NC(=O)N2CCCCN3[C@H](COCCC(=O)O)[C@H](c4ccc(C#Cc5ccccc5)cc4)[C@@H]3C2)cc1 | growth inhibition | WSU field isolate | – | 9 |
| Cc1ccc(C(=O)c2cc(O)c(O)c([N+](=O)[O-])c2)cc1 | parasite growth, qRT-PCR | HCT-8 | 44 h | > 100000 |
| O=C(Cc1ccc(Cl)c(F)c1)N1CCN(c2ccc3nncn3n2)CC1 | high-content imaging | HCT-8 | – | < 1000 |
| COc1ccc(CNc2nc(-c3ccc(C(=O)O)cc3)nc3sc4ccccc4c23)cc1Cl | parasite growth, immunofluorescence microscopy | HCT-8, Iowa | 48 h post infection, compound added at 3 h | 1000 |
| COc1ccc(NC(=O)N2CCCCN3[C@H](CN(C)S(C)(=O)=O)[C@H](c4ccc(C#Cc5ccccc5)cc4)[C@@H]3C2)cc1 | parasite growth, high-content microscopy | Iowa (Bunch Grass Farm) | 10% FBS | 7 |
| O=C1NC(=O)/C(=C/c2ccc3ncnc(N4CCCCC4)c3n2)S1 | parasite growth, immunofluorescence microscopy | HCT-8, Iowa | 48 h post infection, compound added at 3 h | 160 |
| COc1cccc(CC(=O)N2CCN(c3ccc4nncn4n3)CC2)c1 | high-content imaging | HCT-8 | – | 17000 |

For quick reference, copied from above:
| Compound | test | test system | setting | EC50 [nM] |
| --- | --- | --- | --- | --- |
| COc1ccc(NC(=O)N2CCCCN3[C@H](CN(C)S(C)(=O)=O)[C@H](c4ccc(C#Cc5ccccc5)cc4)[C@@H]3C2)cc1 | parasite growth, high-content microscopy | Iowa (Bunch Grass Farm) | 10% FBS | 7 |
